{"data": "Experimental data pooled from the literature", "B1": "PLD4 60-506 (Homo sapiens, UniProt Q96BZ4); 3-phosphohistidine; sequence looked up; chain WGQVQPKDVPRSWEHGSSPAWEPLEAEARQQRDSCQLVLVESIPQDLPSAAGSPSAQPLGQAWLQLLDTAQESVHVASYYWSLTGPDIGVNDSSSQLGEALLQKLQQLLGRNISLAVATSSPTLARTSTDLQVLAARGAHVRQVPMGRLTRGVLHSKFWVVDGRHIYMGSANMDWRSLTQVKELGAVIYNCSHLAQDLEKTFQTYWVLGVPKAVLPKTWPQNFSSHFNRFQPFHGLFDGVPTTAYFSASPPALCPQGRTRDLEALLAVMGSAQEFIYASVMEYFPTTRFSHPPRYWPVLDNALRAAAFGKGVRVRLLVGCGLNTDPTMFPYLRSLQALSNPAANVSVDVKVFIVPVGNHSNIPFSRVNHSKFMVTEKAAYIGTSNWSEDYFSSTAGVGLVVTQSPGAQPAGATVQEQLRQLFERDWSSRYAVGLDGQAPGQDCVWQG", "B2": "sodN mature (Streptomyces seoulensis, UniProt P80734); sequence looked up; chain HCDLPCGVYDPAQARIEAESVKAIQEKMAANDDLHFQIRATVIKEQRAELAKHHLDVLWSDYFKPPHFESYPELHTLVNEAVKALSAAKASTDPATGQKALDYIAQIDKIFWETKKA", "B3": "dnaD 1-128 (Bacillus subtilis, UniProt P39787); chain GSHMKKQQFIDMQEQGTSTIPNLLLTHYKQLGLNETELILLLKIKMHLEKGSYFPTPNQLQEGMSISVEECTNRLRMFIQKGFLFIEECEDQNGIKFEKYSLQPLWGKLYEYIQLAQNQTQERKAEGEQKS", "B4": "GGPS1 R235C (Homo sapiens, UniProt O95749); sequence looked up; chain MEKTQETVQRILLEPYKYLLQLPGKQVRTKLSQAFNHWLKVPEDKLQIIIEVTEMLHNASLLIDDIEDNSKLRRGFPVAHSIYGIPSVINSANYVYFLGLEKVLTLDHPDAVKLFTRQLLELHQGQGLDIYWRDNYTCPTEEEYKAMVLQKTGGLFGLAVGLMQLFSDYKEDLKPLLNTLGLFFQIRDDYANLHSKEYSENKSFCEDLTEGKFSFPTIHAIWSRPESTQVQNILCQRTENIDIKKYCVHYLEDVGSFEYTRNTLKELEAKAYKQIDARGGNPELVALVKHLSKMFKEENE", "B5": "RNASE1 mature P114A/H119A (Bos taurus, UniProt P61823); sequence looked up; chain KETAAAKFERQHMDSSTSAASSSNYCNQMMKSRNLTKDRCKPVNTFVHESLADVQAVCSQKNVACKNGQTNCYQSYSTMSITDCRETGSSKYPNCAYKTTQANKHIIVACEGNAYVPVAFDASV", "B6": "Grik2 (Rattus norvegicus, UniProt P42260); sequence looked up; chain TTHVLRFGGIFEYVESGPMGAEELAFRFAVNTINRNRTLLPNTTLTYDTQKINLYDSFEASKKACDQLSLGVAAIFGPSHSSSANAVQSICNALGVPHIQTRWKHQVSDNKDSFYVSLYPDFSSLSRAILDLVQFFKWKTVTVVYDDSTGLIRLQELIKAPSRYNLRLKIRQLPADTKDAKPLLKEMKRGKEFHVIFDCSHEMAAGILKQALAMGMMTEYYHYIFTTLDLFALDVEPYRYSGVNMTGFRILNTENTQVSSIIEKWSMERLQAPPKPDSGLLDGFMTTDAALMYDAVHVVSVAVQQFPQMTVSSLQCNRHKPWRFGTRFMSLIKEAHWEGLTGRITFNKTNGLRTDFDLDVISLKEEGLEKIGTWDPASGLNMTESQKGKPANITDSLSNRSLIVTTILEEPYVLFKKSDKPLYGNDRFEGYCIDLLRELSTILGFTYEIRLVEDGKYGAQDDVNGQWNGMVRELIDHKADLAVAPLAITYVREKVIDFSKPFMTLGISILYRKPNGTNPGVFSFLNPLSPDIWMYILLAYLGVSCVLFVIARFSPYEWYNPHPCNPDSDVVENNFTLLNSFWFGVGALMQQGSELMPKALSTRIVGGIWWFFTLIIISSYTANLAAFLTVERMESPIDSADDLAKQTKIEYGAVEDGATMTFFKKSKISTYDKMWAFMSSRRQSVLVKSNEEGIQRVLTSDYAFLMESTTIEFVTQRNCNLTQIGGLIDSKGYGVGTPMGSPYRDKITIAILQLQEEGKLHMMKEKWWRGNGCPEEESKEASALGVQNIGGIFIVLAAGLVLSVFVAVGEFLYKSKKNAQLEKRSFCSAMVEELRMSLKCQRRLKHKPQAPVIVKTEEVINMHTFNDRRLPGKETMA", "B7": "ADSL R303C (Homo sapiens, UniProt P30566); sequence looked up; chain MAAGGDHGSPDSYRSPLASRYASPEMCFVFSDRYKFRTWRQLWLWLAEAEQTLGLPITDEQIQEMKSNLENIDFKMAAEEEKRLRHDVMAHVHTFGHCCPKAAGIIHLGATSCYVGDNTDLIILRNALDLLLPKLARVISRLADFAKERASLPTLGFTHFQPAQLTTVGKRCCLWIQDLCMDLQNLKRVRDDLRFRGVKGTTGTQASFLQLFEGDDHKVEQLDKMVTEKAGFKRAFIITGQTYTRKVDIEVLSVLASLGASVHKICTDIRLLANLKEMEEPFEKQQIGSSAMPYKRNPMRSECCCSLARHLMTLVMDPLQTASVQWFERTLDDSANRRICLAEAFLTADTILNTLQNISEGLVVYPKVIERRIRQELPFMATENIIMAMVKAGGSRQDCHEKIRVLSQQAASVVKQEGGDNDLIERIQVDAYFSPIHSQLDHLLDPSSFTGRASQQVQRFLEEEVYPLLKPYESVMKVKAELCL", "B8": "swi6 (Schizosaccharomyces pombe, UniProt P40381); chain MKKGGVRSYRRSSTSKRSVIDDDSEPELPSMTKEAIASHKADSGSSDNEVESDHESKSSSKKLKENAKEEEGGEEEEEDEYVVEKVLKHRMARKGGGYEYLLKWEGYDDPSDNTWSSEADCSGCKQLIEAYWNEHGGRPEPSKRKRTARPKKPEAKEPSPKSRKTDEDKHDKDSNEKIEDVNEKTIKFADKSQEEFNENGPPSGQPNGHIESDNESKSPSQKESNESEDIQIAETPSNVTPKKKPSPEVPKLPDNRELTVKQVENYDSWEDLVSSIDTIERKDDGTLEIYLTWKNGAISHHPSTITNKKCPQKMLQFYESHLTFRENE", "B9": "Xpnpep2 24-649 (Rattus norvegicus, UniProt Q99MA2); sequence looked up; chain GPESLGREDVRDCSTNPPRLPVTAVNTTMRLAALRQQMEKSNLSAYIIPDTDAHMSEYIGKHDERRAWISGFTGSAGTAVVTKKKAAVWTDSRYWTQAERQMDCNWELHKEVSISSIVAWILAEVPDGENVGFDPFLFSVGSWENYDQELQDSNRHLLSITTNLVDVAWGSERPPVPSQPIYALPKEFTGSTWQEKVSAIRSYMQNHTMAPTGVLLSALDETAWLFNLRSSDIPYNPFFYSYTLLTDSSIRLFVNKSRFSLETLQYLNTNCTLPMCVQLEDYSQIRDGVKAYASGNVKILIGISYTTYGVYDVIPKEKLVTETYSPVMLIKAVKNSKEQALLKASHVRDAVAVIQYLVWLEKNVPKGTVDEFSGAEHIDQLRRNENFSSGPSFETISASGLNAALAHYSPTKELHRKLSLDEMYLVDSGGQYWDGTTDITRTVHWGTPTAFQKEAYTRVLMGNIDLSRLVFPAATSGRVVEAFARRALWEVGLNYGHGTGHGIGNFLCVHEWPVGFQYNNMAMAKGMFTSIEPGYYQDGEFGIRLEDVALVVEAKTKYPGTYLTFELVSFVPYDRNLIDVSLLSPEQLQYLNRYYQTIRENIGPELQRRQLLEEFAWLERHTEPLS", "B10": "GET3 reduced (Saccharomyces cerevisiae, UniProt Q12154); sequence looked up; chain MDLTVEPNLHSLITSTTHKWIFVGGKGGVGKTTSSCSIAIQMALSQPNKQFLLISTDPAHNLSDAFGEKFGKDARKVTGMNNLSCMEIDPSAALKDMNDMAVSRANNNGSDGQGDDLGSLLQGGALADLTGSIPGIDEALSFMEVMKHIKRQEQGEGETFDTVIFDTAPTGHTLRFLQLPNTLSKLLEKFGEITNKLGPMLNSFMGAGNVDISGKLNELKANVETIRQQFTDPDLTTFVCVCISEFLSLYETERLIQELISYDMDVNSIIVNQLLFAENDQEHNCKRCQARWKMQKKYLDQIDELYEDFHVVKMPLCAGEIRGLNNLTKFSQFLNKEYNPITDGKVIYELEDKE", "B11": "PF1070 1-140 M69A/L70A/L73A/E74A (Pyrococcus furiosus, UniProt Q8U1Y4); sequence looked up; chain MPSSSKSDFSFSTLIIPQHYLRAILKVVSSSSVEVCGFLFGKENRVLKVRFIRNRLNSPVEFEMDPEEAAKAAAEAEQENLEVVGIFHSHIACPPIPSGKDLEGMKRWPVIWLIVNEKGEYKAWILSEKNKISEVKIVVE", "B12": "NUMA1 1-1699 (Homo sapiens, UniProt Q14980); LD555 dye on C-terminal SNAP; sequence looked up; chain MTLHATRGAALLSWVNSLHVADPVEAVLQLQDCSIFIKIIDRIHGTEEGQQILKQPVSERLDFVCSFLQKNRKHPSSPECLVSAQKVLEGSELELAKMTMLLLYHSTMSSKSPRDWEQFEYKIQAELAVILKFVLDHEDGLNLNEDLENFLQKAPVPSTCSSTFPEELSPPSHQAKREIRFLELQKVASSSSGNNFLSGSPASPMGDILQTPQFQMRRLKKQLADERSNRDELELELAENRKLLTEKDAQIAMMQQRIDRLALLNEKQAASPLEPKELEELRDKNESLTMRLHETLKQCQDLKTEKSQMDRKINQLSEENGDLSFKLREFASHLQQLQDALNELTEEHSKATQEWLEKQAQLEKELSAALQDKKCLEEKNEILQGKLSQLEEHLSQLQDNPPQEKGEVLGDVLQLETLKQEAATLAANNTQLQARVEMLETERGQQEAKLLAERGHFEEEKQQLSSLITDLQSSISNLSQAKEELEQASQAHGARLTAQVASLTSELTTLNATIQQQDQELAGLKQQAKEKQAQLAQTLQQQEQASQGLRHQVEQLSSSLKQKEQQLKEVAEKQEATRQDHAQQLATAAEEREASLRERDAALKQLEALEKEKAAKLEILQQQLQVANEARDSAQTSVTQAQREKAELSRKVEELQACVETARQEQHEAQAQVAELELQLRSEQQKATEKERVAQEKDQLQEQLQALKESLKVTKGSLEEEKRRAADALEEQQRCISELKAETRSLVEQHKRERKELEEERAGRKGLEARLQQLGEAHQAETEVLRRELAEAMAAQHTAESECEQLVKEVAAWRERYEDSQQEEAQYGAMFQEQLMTLKEECEKARQELQEAKEKVAGIESHSELQISRQQNELAELHANLARALQQVQEKEVRAQKLADDLSTLQEKMAATSKEVARLETLVRKAGEQQETASRELVKEPARAGDRQPEWLEEQQGRQFCSTQAALQAMEREAEQMGNELERLRAALMESQGQQQEERGQQEREVARLTQERGRAQADLALEKAARAELEMRLQNALNEQRVEFATLQEALAHALTEKEGKDQELAKLRGLEAAQIKELEELRQTVKQLKEQLAKKEKEHASGSGAQSEAAGRTEPTGPKLEALRAEVSKLEQQCQKQQEQADSLERSLEAERASRAERDSALETLQGQLEEKAQELGHSQSALASAQRELAAFRTKVQDHSKAEDEWKAQVARGRQEAERKNSLISSLEEEVSILNRQVLEKEGESKELKRLVMAESEKSQKLEERLRLLQAETASNSARAAERSSALREEVQSLREEAEKQRVASENLRQELTSQAERAEELGQELKAWQEKFFQKEQALSTLQLEHTSTQALVSELLPAKHLCQQLQAEQAAAEKRHREELEQSKQAAGGLRAELLRAQRELGELIPLRQKVAEQERTAQQLRAEKASYAEQLSMLKKAHGLLAEENRGLGERANLGRQFLEVELDQAREKYVQELAAVRADAETRLAEVQREAQSTARELEVMTAKYEGAKVKVLEERQRFQEERQKLTAQVEQLEVFQREQTKQVEELSKKLADSDQASKVQQQKLKAVQAQGGESQQEAQRLQAQLNELQAQLSQKEQAAEHYKLQMEKAKTHYDAKKQQNQELQEQLRSLEQLQKENKELRAEAERLGHELQQAGLKTKEAEQTCRHLTAQVRSLEAQVAHADQQLRDLGK", "chain of UniProt P26368 (whole entry, looked up)": "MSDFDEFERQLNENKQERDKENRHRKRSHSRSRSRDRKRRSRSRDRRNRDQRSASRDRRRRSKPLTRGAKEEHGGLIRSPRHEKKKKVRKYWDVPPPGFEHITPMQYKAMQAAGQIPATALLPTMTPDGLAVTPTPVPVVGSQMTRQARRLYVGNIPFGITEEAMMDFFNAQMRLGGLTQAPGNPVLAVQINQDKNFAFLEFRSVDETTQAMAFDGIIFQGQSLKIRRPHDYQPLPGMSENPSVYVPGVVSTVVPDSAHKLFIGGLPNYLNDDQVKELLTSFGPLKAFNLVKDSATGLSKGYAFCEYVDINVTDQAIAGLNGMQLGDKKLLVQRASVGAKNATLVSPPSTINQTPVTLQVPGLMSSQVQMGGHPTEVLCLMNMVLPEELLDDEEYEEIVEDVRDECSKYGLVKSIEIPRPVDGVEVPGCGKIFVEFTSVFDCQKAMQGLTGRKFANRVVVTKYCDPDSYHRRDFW"}
{"Molecule": "B1 (PLD4 60-506)", "tested on": "itself", "test": "X-ray crystallography", "measurement": "subunits per oligomer", "value": 2}
{"Molecule": "B2 (sodN mature)", "tested on": "itself", "test": "ESI-MS", "setting": "denaturing conditions", "measurement": "subunits per oligomer", "value": 6}
{"Molecule": "UCUUAAUCU (ssRNA)", "tested on": "U2AF2 148-342 (Homo sapiens, UniProt P26368)", "test": "sequencing of bound RNA", "test system": "RNA", "setting": "motif only", "measurement": "Kd", "value": "1320 nM"}
{"Molecule": "B3 (dnaD 1-128)", "tested on": "itself", "test": "SEC", "measurement": "subunits per oligomer", "value": 4}
{"Molecule": "B4 (GGPS1 R235C)", "tested on": "itself", "test": "SEC-MALS", "measurement": "subunits per oligomer", "value": 6}
{"Molecule": "B5 (RNASE1 mature P114A/H119A)", "tested on": "itself", "test": "SEC", "measurement": "subunits per oligomer", "value": 2}
{"Molecule": "B6 (Grik2)", "tested on": "itself", "test": "cryo-EM", "measurement": "subunits per oligomer", "value": 4}
{"Molecule": "B7 (ADSL R303C)", "tested on": "itself", "test": "SEC-MALS", "setting": "tetramer, His-tagged", "measurement": "subunits per oligomer", "value": 4}
{"Molecule": "B8 (swi6)", "tested on": "itself", "test": "SEC-SAXS", "measurement": "subunits per oligomer", "value": 2}
{"Molecule": "B9 (Xpnpep2 24-649)", "tested on": "itself", "test": "native MS", "measurement": "subunits per oligomer", "value": 2}
{"Molecule": "B10 (GET3 reduced)", "tested on": "itself", "test": "SEC", "measurement": "subunits per oligomer", "value": 2}
{"Molecule": "B11", "tested on": "itself", "test": "SEC", "measurement": "subunits per oligomer", "value": 2}
{"Molecule": "B12 (NUMA1 1-1699)", "tested on": "itself", "test": "mass photometry", "measurement": "subunits per oligomer", "value": 2}
{"note": "Excerpt of the above:"}
{"Molecule": "B9 (Xpnpep2 24-649)", "tested on": "itself", "test": "native MS", "measurement": "subunits per oligomer", "value": 2}
{"Molecule": "B2 (sodN mature)", "tested on": "itself", "test": "ESI-MS", "setting": "denaturing conditions", "measurement": "subunits per oligomer", "value": 6}
